Measurements collected from several papers.
± marks the error that the study gave.

Substance	tested on	assay	test system	conditions	how to read	measurement	result
CCN(N=O)C(C)C	HepaRG, 3D spheroids	–	–	concentration not given, 24 h, highest tested concentration, hEGF 6 days	relative to: vehicle	relative survival	89.9%
CC[C@H](C)[C@H](NC(=O)[C@H](CC(=O)O)NC(=O)[C@H](Cc1ccccc1)NC(=O)[C@H](CC(C)C)NC(=O)CN)C(=O)N[C@H](C(=O)N[C@@H](CCCCN)C(=O)N[C@@H](CCCCN)C(=O)N[C@H](C(=O)N[C@H](C(=O)NCC(=O)N[C@@H](C)C(=O)N[C@@H](CC(C)C)C(=O)N[C@@H](CCCCN)C(N)=O)C(C)C)C(C)C)C(C)C	human erythrocytes	–	–	1 h, 37 °C, hemolysis ≤5%	–	minimal hemolytic concentration	2 µM
Cc1cnc2ccc3c(nc(N)n3C)c2n1	rat primary midbrain neurons	selective dopaminergic neurotoxicity, refers to: TH+ over MAP2+ neurons	–	24 h	–	threshold concentration	1 µM
C#CC[C@H](NCCC)C(=O)N[C@@H](Cc1c[nH]c2ccccc12)C(=O)NCc1ccc(-c2ccccc2)cc1	Vero	cell morphology, microscopy	–	5 (unit not given)	–	minimum cytotoxic concentration	> 100 µM
CC(O)[C@@]12SS[C@]3(C(=O)N1C)[C@@H](O)[C@]1([C@@]45c6ccccc6N[C@@H]4N4C(=O)[C@]6(C)SS[C@]4(C(=O)N6C)[C@H]5O)c4ccccc4N[C@@H]1N3C2=O (stereo partly drawn)	NCI-H460	cell growth or viability, SRB	–	–	–	IC50	290 nM
NCCc1cc(O)c(O)cc1O	SH-SY5Y	cell growth or viability, CCK-8	–	200 µM, 16 h	–	viability	~30%
CCNc1nc(Cl)nc(NC(C)C)n1	HEK293	neutral red uptake	–	24 h	–	LD50	4.23 µg/mL
C[C@H](NP(=O)(OCCOCn1cnc2c(=O)[nH]c(N)nc21)Oc1ccccc1)C(=O)OCc1ccccc1 (stereo partly drawn)	HEL	altered cell morphology	–	–	–	minimal cytotoxic concentration	> 50 µM
Cn1cnc(S(=O)(=O)N2CCCCN3[C@H](CO)[C@@H](c4ccc(-c5ccc(F)cc5)cc4)[C@@H]3C2)c1	HEp-2, uninfected	–	–	original sample	–	CC50	59000 nM
CC[C@H](C)[C@@H]1NC(=O)[C@H](Cc2c[nH]c3ccccc23)NC(=O)CNC(=O)c2cc3cc(c2)C(=O)NC[C@@H](C(=O)NCCC(=O)NCCC(=O)N[C@@H](CCCCN)C(N)=O)NC(=O)[C@H](CCCNC(=N)N)NC(=O)[C@@H](CCCNC(=N)N)NC(=O)[C@H](CCCNC(=N)N)NC(=O)[C@H](Cc2ccc4ccccc4c2)NC(=O)[C@H](Cc2ccccc2)NC(=O)[C@H](CNC3=O)NC(=O)[C@H](C)NC(=O)[C@H](Cc2ccc(O)cc2)NC1=O	HeLa	flow cytometry	–	5 µM, 2 h, FITC-labelled peptide	relative to: CPP1	cellular uptake	163%
Cn1c(N)nc2c3cccnc3ccc21	rat primary midbrain neurons	selective dopaminergic neurotoxicity, refers to: TH+ over MAP2+ neurons	–	24 h	–	threshold concentration	5 µM
C=C(C[C@H](N)C(=O)O)C(=O)Nc1ccccc1	SK-BR-3 cells	cytotoxicity	–	24 h	relative to: vehicle	lowest significantly active concentration	100 µM
CCCCN(CCCC)N=O	HepaRG, 3D spheroids	–	–	highest tested concentration, 24 h, plus 5 days, with: hEGF 100 ng/mL	relative to: vehicle	γH2A.X fold increase	1.5 to 1.8 fold
CC(=O)NC(C)(C)C(=O)N1CCC[C@H]1C(=O)NC(C)(C)C(=O)N[C@@H](C)C(=O)NC(C)(C)C(=O)N[C@@H](C)C(=O)N[C@@H](CCC(N)=O)C(=O)NC(C)(C)C(=O)N[C@H](C(=O)NC(C)(C)C(=O)NCC(=O)N[C@@H](CC(C)C)C(=O)NC(C)(C)C(=O)N1CCC[C@H]1C(=O)N[C@H](C(=O)NC(C)(C)C(=O)NC(C)(C)C(=O)N[C@@H](CCC(=O)O)C(=O)N[C@@H](CCC(N)=O)C(=O)N[C@H](CO)Cc1ccccc1)C(C)C)C(C)C	rat erythrocytes	–	–	concentration not given, 30 min, pH 7.4, 37 °C, with: Escherichia coli K-235 LPS, 1:5 w/w	–	hemolysis	no inhibition
CC(C)(NP(=O)(OCCOCn1cnc2c(=O)[nH]c(N)nc21)Oc1cccc2ccccc12)C(=O)OCc1ccccc1 (stereo not drawn)	HEL	altered cell morphology	–	–	–	minimal cytotoxic concentration	> 50 µM
O=NN1CCN(C2CCCC2)CC1	HepaRG, 3D spheroids	–	–	highest tested concentration, 24 h, plus 5 days, with: hEGF 100 ng/mL	relative to: vehicle	γH2A.X fold increase	1.5 to 1.8 fold
CN[C@@](C)(C[18F])C(=O)O	A549 tumour model	–	host not given, lung	30 min, tumour-bearing	–	tracer uptake	2.9 %ID/g
CN1C(=O)[C@]23SS[C@@]1(C)C(=O)N2[C@H]1Nc2ccccc2[C@@]1([C@@]12c4ccccc4N[C@@H]1N1C(=O)[C@@]4(C)SS[C@]1(C(=O)N4C)[C@H]2O)[C@@H]3O	HT-29	cell growth or viability, SRB	–	–	–	IC50	20 nM

Substance	tested on	assay	test system	conditions	how to read	measurement	result
CN(C)N=O	HepaRG 2D	DNA damage	–	24 h	–	lowest effective concentration	7500 µM
C=CC[C@H](NCc1ccccc1)C(=O)N[C@@H](Cc1c[nH]c2ccccc12)C(=O)NCc1ccc(-c2ccccc2)cc1	Vero	cell morphology, microscopy	–	5 (unit not given)	–	minimum cytotoxic concentration	≥ 100 µM
CC(C)C[C@H](NC(=O)CN)C(=O)N[C@@H](Cc1ccccc1)C(=O)N[C@@H](CCCCN)C(=O)N[C@@H](CC(C)C)C(=O)N[C@@H](CC(C)C)C(=O)N[C@@H](CCCCN)C(=O)N[C@@H](CCCCN)C(=O)N[C@@H](CC(C)C)C(=O)N[C@@H](CC(C)C)C(=O)N[C@@H](CCCCN)C(=O)N[C@@H](CC(C)C)C(=O)N[C@@H](CC(C)C)C(=O)N[C@@H](CCCCN)C(N)=O	human erythrocytes	–	–	1 h, 37 °C, hemolysis ≤5%	–	minimal hemolytic concentration	125 µM
CC(C)C[C@H](NC(=O)[C@H](C)NC(=O)[C@H](CCCCN)NC(=O)[C@H](CCCNC(=N)N)NC(=O)[C@H](Cc1ccc(O)cc1)NC(=O)[C@H](CC(C)C)NC(=O)[C@H](CCCNC(=N)N)NC(=O)[C@H](C)NC(=O)[C@H](C)NC(=O)[C@H](CC(C)C)NC(=O)[C@H](CCCCN)NC(=O)[C@H](C)NC(=O)[C@H](Cc1ccccc1)NC(=O)[C@H](C)NC(=O)[C@@H](N)CCCCN)C(=O)N[C@@H](C)C(=O)N[C@@H](CCCNC(=N)N)C(=O)N[C@@H](CCC(N)=O)C(=O)N[C@@H](CC(C)C)C(=O)NCC(=O)N[C@H](C(=O)N[C@@H](C)C(=O)N[C@@H](C)C(N)=O)C(C)C	human pleural mesothelial cells (CRL-9444)	LIVE/DEAD calcein-AM/EthD-1	–	24 h, 37 °C	relative to: untreated	maximum non-lethal concentration	230 µM
COc1cccc2c1C(=O)c1c(O)c3c(c(O)c1C2=O)C[C@@](O)(C(=O)CO)C[C@@H]3O[C@H]1C[C@H](N)[C@H](O)[C@H](C)O1	MCF7/ADR	flow cytometry	–	10 µg/mL equivalent, 4 h loading, 4 h efflux, 37 °C	–	drug efflux	84.9%
C[C@H](NP(=O)(OCCOCn1cnc2c(=O)[nH]c(N)nc21)Oc1cccc2ccccc12)C(=O)OC(C)(C)C (stereo partly drawn)	HEL	altered cell morphology	–	–	–	minimal cytotoxic concentration	> 50 µM
CN(CCCC(=O)O)N=O	HepaRG, 3D spheroids	flow cytometry micronucleus	–	highest tested concentration, 24 h, plus 6 days hEGF	relative to: vehicle	relative survival	76.7%
CCCOC(=O)[C@H](C)NP(=O)(OCCOCn1cnc2c(=O)[nH]c(N)nc21)Oc1cccc2ccccc12 (stereo partly drawn)	HEL	altered cell morphology	–	–	–	minimal cytotoxic concentration	≥ 50 µM
Clc1ccc(-c2nc3sccn3c2C=NOCc2ccc(Cl)c(Cl)c2)cc1	Caco-2 cells, CAR-transfected	refers to: CYP2B6	–	1 µM, 24 h, unit not given	relative to: vector control	expression level	8.29 ± 3.33
CC(C)N(N=O)C(C)C	HepaRG, 3D spheroids	–	–	concentration not given, 24 h, highest tested concentration, hEGF 6 days	relative to: vehicle	relative survival	93.5%
CC(C)C[C@H](NC(=O)[C@H](C)NC(=O)[C@H](CCCCN)NC(=O)[C@H](CC(C)C)NC(=O)[C@H](CC(C)C)NC(=O)[C@H](CCCCN)NC(=O)[C@H](CCCCN)NC(=O)[C@H](CC(C)C)NC(=O)[C@H](CC(C)C)NC(=O)[C@H](CCCCN)NC(=O)[C@H](CC(C)C)NC(=O)[C@H](CC(C)C)NC(=O)[C@@H](N)CCCCN)C(=O)NCC(N)=O	human erythrocytes	–	–	1 h, 37 °C, hemolysis ≤5%	–	minimal hemolytic concentration	8 µM
CC[C@H](C)[C@H](N)C(=O)N[C@@H](CC(C)C)C(=O)N1CCC[C@H]1C(=O)N[C@@H](Cc1c[nH]c2ccccc12)C(=O)N[C@@H](CCCCN)C(=O)N[C@@H](Cc1c[nH]c2ccccc12)C(=O)N1CCC[C@H]1C(=O)N[C@@H](Cc1c[nH]c2ccccc12)C(=O)N[C@@H](Cc1c[nH]c2ccccc12)C(=O)N1CCC[C@H]1C(=O)N[C@@H](Cc1c[nH]c2ccccc12)C(=O)N[C@@H](CCCN=C(N)N)C(=O)N[C@@H](CCCN=C(N)N)C(N)=O	human erythrocytes	–	–	15 µM, 1 h, pH 7.4	relative to: water lysis	haemolysis	23 ± 6%
pneumocandin I	human erythrocytes	–	–	102.4 µg/mL, 1 h, 37 °C	relative to: Tween 20	hemolysis	> 50%
CC[C@@]12SS[C@]3(C(=O)N1C)[C@@H](O)[C@]1(C45c6ccccc6N[C@@H]4N4C(=O)[C@@]6(CC)SS[C@@]4(C(=O)N6C)[C@H]5O)c4ccccc4N[C@@H]1N3C2=O (stereo partly drawn)	SF-268	cell growth or viability, SRB	–	–	–	IC50	330 nM
Nc1nc2c(ncn2COCCOP(=O)(NCC(=O)OCc2ccccc2)Oc2ccccc2)c(=O)[nH]1 (stereo not drawn)	HEL	altered cell morphology	–	–	–	minimal cytotoxic concentration	> 100 µM
COc1cc(/C=C/C(=O)OCC(O)C(OC)c2ccc(O)c(OC)c2)ccc1O (stereo not drawn)	Hepa-1c1c7	cytotoxicity, crystal violet	–	48 h	–	IC50	> 20000 nM
CC[C@@]12SS[C@]3(C(=O)N1C)[C@@H](O)C1(C45c6ccccc6N[C@@H]4N4C(=O)[C@]6([C@@H](C)O)SS[C@]4(C(=O)N6C)[C@H]5O)c4ccccc4N[C@@H]1N3C2=O (stereo partly drawn)	HT-29	cell growth or viability, SRB	–	–	–	IC50	30 nM
C=C(C[C@H](N)C(=O)O)C(=O)NCc1ccccc1	MCF7	–	–	72 h	relative to: vehicle	concentration increasing cytotoxicity	320 µM

A few entries again:
Substance	tested on	assay	test system	conditions	how to read	measurement	result
Cn1cnc(S(=O)(=O)N2CCCCN3[C@H](CO)[C@@H](c4ccc(-c5ccc(F)cc5)cc4)[C@@H]3C2)c1	HEp-2, uninfected	–	–	original sample	–	CC50	59000 nM
CC[C@H](C)[C@@H]1NC(=O)[C@H](Cc2c[nH]c3ccccc23)NC(=O)CNC(=O)c2cc3cc(c2)C(=O)NC[C@@H](C(=O)NCCC(=O)NCCC(=O)N[C@@H](CCCCN)C(N)=O)NC(=O)[C@H](CCCNC(=N)N)NC(=O)[C@@H](CCCNC(=N)N)NC(=O)[C@H](CCCNC(=N)N)NC(=O)[C@H](Cc2ccc4ccccc4c2)NC(=O)[C@H](Cc2ccccc2)NC(=O)[C@H](CNC3=O)NC(=O)[C@H](C)NC(=O)[C@H](Cc2ccc(O)cc2)NC1=O	HeLa	flow cytometry	–	5 µM, 2 h, FITC-labelled peptide	relative to: CPP1	cellular uptake	163%
Cn1c(N)nc2c3cccnc3ccc21	rat primary midbrain neurons	selective dopaminergic neurotoxicity, refers to: TH+ over MAP2+ neurons	–	24 h	–	threshold concentration	5 µM
C=C(C[C@H](N)C(=O)O)C(=O)Nc1ccccc1	SK-BR-3 cells	cytotoxicity	–	24 h	relative to: vehicle	lowest significantly active concentration	100 µM
CCCCN(CCCC)N=O	HepaRG, 3D spheroids	–	–	highest tested concentration, 24 h, plus 5 days, with: hEGF 100 ng/mL	relative to: vehicle	γH2A.X fold increase	1.5 to 1.8 fold
